Published values pooled from the literature.
Numbered parts are unrelated; each lists some results of a single study. Positions count from the first letter of the parent shown.

Study 1 — method: RNA Bind-n-Seq; form: RNA; matrix: in vitro; tested at: 20 nM; setting: 6-mer, flanks averaged, single round; with: 150 mM LiCl; baseline: input library; direction: higher = stronger binding
Target: TAR DNA-binding protein 43, full length, His tag (TARDBP, Homo sapiens, UniProt Q13148, residues 1-414)
Oligonucleotide | 6-mer enrichment (R)
GCCUUG | 1.23
GUUAUC | 0.939
UCAUAA | 0.875
UUGGUU | 1.22
UGAGGA | 1.06
GAGGCU | 0.975
GUAAGC | 0.941
ACAGCA | 0.85
ACAGCG | 0.887
UGACCU | 0.913
CGUUAC | 0.876
UUCUAC | 0.879

Study 2 — method: DHFR PCA, deep sequencing; matrix: yeast; with: (+)-ABA 4.8 µM; baseline: wild-type fitted maximum; direction: higher = stronger binding
Target: ABI1, truncated, D143A, DHFR fusion (Arabidopsis thaliana)
Setting: methotrexate growth selection, single substitutions
Parent: PYL1, truncated, DHFR fusion (Arabidopsis thaliana); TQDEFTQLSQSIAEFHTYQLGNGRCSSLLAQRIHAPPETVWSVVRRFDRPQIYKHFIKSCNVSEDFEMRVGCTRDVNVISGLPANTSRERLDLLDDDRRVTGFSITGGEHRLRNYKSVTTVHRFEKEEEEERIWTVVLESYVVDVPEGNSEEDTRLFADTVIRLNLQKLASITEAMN
Change | relative binding score
S104R | 2.06%
F47M | 8.46%
A13I | 55.2%
D48C | -38.2%
D97R | 64.1%
R46P | -16%
C72E | 69.2%
E127C | 71%
V40F | -32.6%
L156K | 21.1%
R98T | 21.5%
D95G | -5.24%
D3Y | 55.8%

Study 3 — method: RNA Bind-n-Seq; form: RNA; matrix: in vitro; tested at: 365 nM; baseline: no-protein control; direction: higher = stronger binding
Target: RNA binding protein fox-1 homolog 2, RRM domain, GST-SBP tag (RBFOX2, Homo sapiens, UniProt O43251-10, residues 100-194)
Setting: natural RNA segment, single round, ends assumed
Construct (chain): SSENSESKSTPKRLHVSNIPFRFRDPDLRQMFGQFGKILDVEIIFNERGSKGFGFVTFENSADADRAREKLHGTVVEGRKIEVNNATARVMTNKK
Oligonucleotide | RBNS enrichment (R)
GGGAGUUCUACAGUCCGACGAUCUCGCCCUCGUCCUACACCCUGGCUUCAGUGCAACUCUUUUCCUUCAGCUGCAUGUGAUUUUGUGAUAAAGUUCAGGUAACAGGAUGGGCAGUGAUGGAGAAUCACUGUUGUGGAAUUCUCGGGUGCCAA | 6.21
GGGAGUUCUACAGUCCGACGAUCGCCCAGCCCAGGGGUGCCGUGGAGGACCACCCUGGCAGAGACAUUGCUGAUCCCUGGCUUGGAGCUCCUUGGGGGCCGGCAGGCCUCGACCCCCACCCUAGGGAAUGCAGUGGAAUUCUCGGGUGCCAA | 0.424
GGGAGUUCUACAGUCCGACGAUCAUGUGGACUCGUAAGAUUCACAGAGAAUGUGUGCUCUGUUGUGAUUCUCUUGUCAUAGUCCUGGUUUGCCAGCUGACUACAGGAUAGACCCAGCUGUCUGGCACUCAAACUGGAAUUCUCGGGUGCCAA | 1.27
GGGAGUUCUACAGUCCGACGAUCACAGUCUGCUUGUGGGCUCUGAAAGCUGGGGUGGGGCCAGAGCCUGAGCGUUUAAUUUAUUCAGUACCUGUGUUUGUGUGAAUGCGGUGUGUGCAGGCAUCGCAGAUGGGUGGAAUUCUCGGGUGCCAA | 2.37
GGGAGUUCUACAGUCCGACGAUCGAGCUCAUGUCCAUGAGCAUCGCACCACGAAUGAUGAGUGUUAGCUGCCAGAAGUUCAUGGUCAGAUACUGUGACUAUCACUAUCUUGUUUCUGUGAUUGUCAUUAAAAAUGGAAUUCUCGGGUGCCAA | 0.374
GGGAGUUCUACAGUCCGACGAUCUCUUUCAUACGAUACUCUUUCUCAAGAAGGGGGCUCCCUGGGAUCUCCAGGUGUACUGCACUUACCCUCAAUCCAGCCCCGGAGAAGCAAGUGAAAAGGGUGGGUCCCUCUGGAAUUCUCGGGUGCCAA | 0.504
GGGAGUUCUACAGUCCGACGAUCUGCUAGGUGAGUUUCAUUCUGGAAAAGGAGAAAGAUAGUGAUGUCUAGAUGCCUGUAGCCUGUGGGGAAAAGCCAACUAGAAAACAACUGGCGUUUAUCAGGUACCUUAGUGGAAUUCUCGGGUGCCAA | 0.451
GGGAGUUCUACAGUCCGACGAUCGUCAGAACUGUCCCCUUGGAGAUGUGACUGUGUUUGUAACAAUAUUGUCCUCACUGCCGUGGACACGUGGACACGUCCCACCUGAACCCCCUGCCGGACCAGGAGGCUCCUGGAAUUCUCGGGUGCCAA | 0.362
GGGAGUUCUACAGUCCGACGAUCGUGUUAUCCUCUAAGUGUGAUAAACUGUGCUUUACCGCUCCGAACACUCAGGACUCCGUGUGUAUCAGUGUGGGCUCCUCAGUAAGGAAGAGGAGCUCAAAGUUUGUGUGUGGAAUUCUCGGGUGCCAA | 0.75
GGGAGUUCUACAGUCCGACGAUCUGGCAGUCCUGGUCCUUCCACUGUGCACCUGCGCGGAGGACGCGACCUCAGUUGUCCUGCCCUGUGGAAUGGGCUCAAGGUUCCUGAGACACCCGAUUCCUGCCCAAACAUGGAAUUCUCGGGUGCCAA | 0.181
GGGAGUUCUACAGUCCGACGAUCGGUUUUGUAUAUGGGAUUUUCUAUUUAUAUAGCUUCUAUUUGUAUAUUUUGAGAUAAUUUAUUUAAUAUACUUUUAUAUAAAUAAAGGUGAUUGGGAAUUGAGACAAUCGUGGAAUUCUCGGGUGCCAA | 0.989
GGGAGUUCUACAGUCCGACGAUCAGAAAAUACCUGAAAAGCAACUUUAUUGCUUCAAUCUGGAUAUAAGUAGUUAUUUAUAAAUAGUUAAGAUUAAUUUAAAUGUAAAAACGUGCUUAAUUCCCUAAUAAUUUUGGAAUUCUCGGGUGCCAA | 0.367

Study 4 — target: CCNA2, cyclin fold, Cln2 fusion (human); method: yeast growth competition, sequencing; matrix: yeast; setting: strong parent motif; baseline: not given; direction: higher = stronger binding
Parent: E2F1 docking peptide (human); PPVKRRLDLETDH; partner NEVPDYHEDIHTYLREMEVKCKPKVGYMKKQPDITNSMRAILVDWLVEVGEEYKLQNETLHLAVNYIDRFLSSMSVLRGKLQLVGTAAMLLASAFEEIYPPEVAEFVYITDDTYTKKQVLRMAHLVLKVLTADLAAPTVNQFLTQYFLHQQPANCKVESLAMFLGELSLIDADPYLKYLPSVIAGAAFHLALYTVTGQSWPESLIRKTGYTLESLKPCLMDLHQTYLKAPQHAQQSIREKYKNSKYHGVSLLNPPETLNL
Change | normalised enrichment score
T11E | 3.73
P1I | 4.11
R6T | 1.99
V3I | 1.07
P1V | 3.77
D12C | 4.7
E10N | 4.93
D12G | 4.82
H13L | 4.43
L7Y | -0.347
D12P | 5.6
P2W | 2.05
T11P | 5.45
L9F | 6.26
D12R | 3.55
P1K | 6.14
L7C | 0.385
D8F | 5.87
D8W | 4.33
H13E | 3.91
D8Q | 4.79
V3H | 0.598
L7I | 2.15
R6Y | 0.797
P2I | 2.3

Study 5 — method: protein binding microarray; form: double-stranded DNA, one strand shown; matrix: in vitro; tested at: not given; baseline: not given; direction: higher = stronger binding
Target: Histone acetyltransferase KAT6A, winged helix 2, GST fusion (KAT6A, Homo sapiens, UniProt Q92794, residues 85-181)
Setting: 8-mer, flanks averaged, mean of 2 arrays, mostly near background
Construct (chain): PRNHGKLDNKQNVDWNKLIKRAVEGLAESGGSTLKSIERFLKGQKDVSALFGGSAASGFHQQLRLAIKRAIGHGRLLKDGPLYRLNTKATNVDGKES
Oligonucleotide | E-score
AGTGCAGG | 0.139
CAACTCCG | 0.0765
GTATCATA | 0.211
AGGATCAT | -0.0505
AGCTCATA | 0.0804
CGGCGCTA | 0.0521
AGGCGAGA | 0.117
TGTCTGAA | -0.0138
GTGTAGTA | -0.122
ATAGCTCG | -0.0311
CGTATGGC | 0.0961
ACGTTATG | -0.204
CTGCGGAA | 0.0226
CGCGACCA | 0.148
GCGCTCCA | 0.16
TTATATAA | 0.209
AGCCAAGA | -0.176
TGTAACAA | -0.0899
GCCCGGCC | 0.187
TCTGTGAA | 0.0471

Study 6 — method: universal PBM; form: double-stranded DNA, one strand shown; matrix: in vitro; tested at: 600 nM; direction: higher = stronger binding
Target: Sal-like protein 4, full length isoform A (SALL4, Homo sapiens, UniProt Q9UJQ4, residues 1-1053)
UniProt Q9UJQ4, sequence (whole entry, looked up): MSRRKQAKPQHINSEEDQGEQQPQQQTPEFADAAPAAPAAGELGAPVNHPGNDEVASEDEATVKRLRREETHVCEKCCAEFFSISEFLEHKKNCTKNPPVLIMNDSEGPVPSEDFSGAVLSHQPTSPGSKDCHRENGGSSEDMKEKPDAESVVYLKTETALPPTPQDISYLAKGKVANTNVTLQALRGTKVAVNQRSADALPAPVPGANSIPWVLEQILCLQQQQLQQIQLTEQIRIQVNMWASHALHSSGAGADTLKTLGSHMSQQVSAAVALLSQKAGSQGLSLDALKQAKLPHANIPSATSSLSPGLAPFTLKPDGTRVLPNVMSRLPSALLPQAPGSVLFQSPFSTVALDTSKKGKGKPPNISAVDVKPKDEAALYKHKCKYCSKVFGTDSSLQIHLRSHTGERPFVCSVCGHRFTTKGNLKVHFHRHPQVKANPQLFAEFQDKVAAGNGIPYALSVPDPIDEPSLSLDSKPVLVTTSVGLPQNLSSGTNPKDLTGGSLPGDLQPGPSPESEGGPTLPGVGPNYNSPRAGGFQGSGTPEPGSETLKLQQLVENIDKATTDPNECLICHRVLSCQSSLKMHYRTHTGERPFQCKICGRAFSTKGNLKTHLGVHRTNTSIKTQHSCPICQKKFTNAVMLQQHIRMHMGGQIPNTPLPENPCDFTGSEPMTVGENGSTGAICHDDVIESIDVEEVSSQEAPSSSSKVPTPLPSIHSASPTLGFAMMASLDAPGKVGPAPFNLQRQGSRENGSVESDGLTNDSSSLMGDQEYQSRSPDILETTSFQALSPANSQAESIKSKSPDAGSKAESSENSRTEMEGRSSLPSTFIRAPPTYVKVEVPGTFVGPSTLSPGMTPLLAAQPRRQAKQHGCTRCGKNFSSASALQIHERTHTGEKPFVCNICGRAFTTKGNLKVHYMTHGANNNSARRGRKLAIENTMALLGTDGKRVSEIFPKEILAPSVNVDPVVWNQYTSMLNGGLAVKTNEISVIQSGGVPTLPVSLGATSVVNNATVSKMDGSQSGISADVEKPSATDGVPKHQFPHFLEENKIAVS
Setting: 8-mer, flanks averaged, mean of replicates
Oligonucleotide | E-score
GATCCGCA | -0.286
GAGTCGGC | -0.183
CTCAGCAG | -0.178
AGATCAAG | 0.0471
ATTGTCAC | 0.169
ACATTAGA | 0.185
TCCATTAA | 0.251
ACTACCCT | -0.022
ACAAGAAA | 0.223
AAATAGTG | 0.252
CAAGTCAC | 0.0125
AAATGCCC | -0.234
CACGAACC | -0.22
AAAGTGTG | 0.0635
CGATCCAG | -0.25
CGATCCCA | -0.188
ATAACAGA | 0.287
GGATTCCC | -0.386
AATGAGTA | 0.324
TGCATAAA | 0.33
CCACGGAC | -0.267
AATTGGAT | 0.228
TGTCTCAA | 0.0642
GAGCTAAC | -0.0127
AGAGAATA | 0.222

Single results of other studies
Substance | target | test | system | setting | scale | endpoint | result
PhoQ, residues 284 288 289 292 302 303 GNNTDL | PhoP, residues 12 14 15 18 19 VQALL (Escherichia coli, UniProt P23836) | Sort-seq, item: YFP reporter | E. coli | PhoQ-PhoP variant library, with: 10 µM Mg2+ | baseline: high Mg2+ state, higher = stronger signaling | fold induction | 5.8

Repeated from above (study 6):
Oligonucleotide | E-score
GAGTCGGC | -0.183
CTCAGCAG | -0.178
AGATCAAG | 0.0471
ATTGTCAC | 0.169
ACATTAGA | 0.185
TCCATTAA | 0.251
ACTACCCT | -0.022
ACAAGAAA | 0.223
AAATAGTG | 0.252
CAAGTCAC | 0.0125
AAATGCCC | -0.234
CACGAACC | -0.22
AAAGTGTG | 0.0635
CGATCCAG | -0.25
CGATCCCA | -0.188
ATAACAGA | 0.287
